Experimental data gathered from unrelated publications.
Parts stem from different laboratories: compare values within a part only.

Sample 1
Target: Interferon regulatory factor 7, full length, phosphomimetic (IRF7, Homo sapiens, UniProt Q92985, residues 1-503, S471D/S472D/S475D/S476D/S477D/S483D/S484D/S487D)
Chain of UniProt Q92985 (whole entry, unmodified, looked up): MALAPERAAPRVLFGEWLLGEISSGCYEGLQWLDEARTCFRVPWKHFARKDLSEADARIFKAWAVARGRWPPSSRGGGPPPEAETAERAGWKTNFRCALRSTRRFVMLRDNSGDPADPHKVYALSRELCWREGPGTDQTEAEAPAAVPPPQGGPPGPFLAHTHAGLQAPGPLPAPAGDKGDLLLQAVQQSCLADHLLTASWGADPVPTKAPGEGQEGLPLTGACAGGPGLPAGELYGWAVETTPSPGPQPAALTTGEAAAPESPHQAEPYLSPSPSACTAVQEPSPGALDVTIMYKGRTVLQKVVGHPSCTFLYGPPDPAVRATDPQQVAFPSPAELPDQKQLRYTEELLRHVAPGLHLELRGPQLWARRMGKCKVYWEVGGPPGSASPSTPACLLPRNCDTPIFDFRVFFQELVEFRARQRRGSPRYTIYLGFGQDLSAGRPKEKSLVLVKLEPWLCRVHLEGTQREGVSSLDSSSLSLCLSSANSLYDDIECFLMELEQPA
Method: protein-binding microarray
Form: double-stranded DNA, one strand shown
Medium: in vitro
Concentration: 2200 nM top
Notes: 60-bp whole probe
Added: salmon DNA 0.4 mg/ml
Relative to: random background probes
Direction: higher = stronger binding
Quantity: fitted relative affinity
All sequences stand within: GCCTAGCAC … GTCTTGATTCGCTTGACGCTGCTG
TTAGGACTGCTATTGCTTTAGTGCTAG: 0.00586 z-score
GACGGTCTCGTACTGGGGACGTGCTAG: -0.247 z-score
TTCCCTCTCCCCTCTTGTGCTGTGCTA: 1.92 z-score
GTCGGTATCGGGTATCGGGACGTGCTA: 0.483 z-score
TTATGACTGGACTATCGGTTAGTGCTA: 0.226 z-score
TTAGATTTCAATATCGATTAGTGCTAG: 0.228 z-score
GACGAACAGAGTCTCGAGACGTGCTAG: -0.0085 z-score
CTCATTCTCTGTTTATGTCTGTGCTAG: 2.96 z-score
TCATTTTCCATTTTGTGACTGTGCTAG: 7.48 z-score
AGATGCCAAGAGGCATGATGGTGCTAG: -0.491 z-score
GACGGTTTCGGGACTTGGGACGTGCTA: 3.66 z-score
GGCTTCCTCTTTCTCTGCTAGTGCTAG: 2.17 z-score
GACGGTATCGGGACTCGGGACGTGCTA: -0.292 z-score
TCACATTTCCCTTGCCGACTGTGCTAG: 2.82 z-score
TCACATTTTTTTTTTCTACTGTGCTAG: 2.19 z-score
TTGGATTTCAGTTCCGATTAGTGCTAG: 1.98 z-score
CACGGTTTCGACTTTCGGGACGTGCTA: 8.96 z-score
TTAGGGATCGGGACTGGGTTAGTGCTA: -0.801 z-score
TTAGATCTCAGTATCGATTGGTGCTAG: 0.423 z-score
TCAGGTTTACCAGATCATACTGTGCTA: 0.461 z-score
GACGGTTTCCTTTCGCTGACGTGCTAG: 5.88 z-score
TTAGGTTTCCCTTTCCTTTAGTGCTAG: 5.55 z-score
GACGGTCTCGGACTCGGGACGTGCTAG: -0.376 z-score
TTAGGTTTCGGTACTGGGTTAGTGCTA: 5.05 z-score

Sample 2
Target: Sal-like protein 4, full length isoform B (SALL4, Homo sapiens, UniProt Q9UJQ4-2, residues 1-616)
Method: universal PBM
Form: double-stranded DNA, one strand shown
Medium: in vitro
Concentration: not given
Notes: 8-mer, flanks averaged, mean of replicates
Direction: higher = stronger binding
Quantity: E-score
Residues (chain): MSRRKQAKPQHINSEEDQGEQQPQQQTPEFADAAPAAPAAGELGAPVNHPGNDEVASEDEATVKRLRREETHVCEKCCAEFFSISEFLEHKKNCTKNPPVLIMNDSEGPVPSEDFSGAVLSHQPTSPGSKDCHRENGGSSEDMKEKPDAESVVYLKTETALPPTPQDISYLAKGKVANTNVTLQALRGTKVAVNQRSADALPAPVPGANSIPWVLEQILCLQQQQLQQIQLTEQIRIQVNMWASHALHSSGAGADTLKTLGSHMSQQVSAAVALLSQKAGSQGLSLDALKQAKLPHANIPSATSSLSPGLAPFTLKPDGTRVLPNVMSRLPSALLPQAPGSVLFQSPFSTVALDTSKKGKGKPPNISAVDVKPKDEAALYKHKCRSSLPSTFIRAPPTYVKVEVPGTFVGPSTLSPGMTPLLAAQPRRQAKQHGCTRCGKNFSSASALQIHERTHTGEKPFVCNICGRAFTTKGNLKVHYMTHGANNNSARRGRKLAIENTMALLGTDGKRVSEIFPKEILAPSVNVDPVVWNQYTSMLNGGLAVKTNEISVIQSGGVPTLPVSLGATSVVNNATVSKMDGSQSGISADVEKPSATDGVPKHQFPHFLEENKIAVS
CCGCGGGA: -0.25
AGCCCTTG: -0.203
ACGGCAAA: -0.0316
CTCGGAGC: -0.229
AGTTCATA: 0.275
AATTAGTC: 0.243
GTCTCGCA: -0.0874
GTCCGACA: -0.144
ACCAGAGC: -0.166
CGATGCCC: -0.22
AATGGCGT: -0.0887
CGTCCATC: -0.0599
CTCGATGC: -0.187
GGTCGCAA: -0.189
GATCGCCC: -0.338
AAAGTACA: 0.265
GTGCACGA: -0.102
CACGGCCA: -0.304
CACGGCGG: -0.227
CTCGCGAC: -0.262
GCATCACC: -0.258
GAATTTGC: 0.164
ATGTCTGG: 0.0593
CACGCACC: -0.229
AGCCGGAA: -0.185

Sample 3
Target: Ras GTPase-activating protein-binding protein 1, C-terminal RGG region (G3BP1, Homo sapiens, UniProt Q13283)
Chain of UniProt Q13283 (whole entry, looked up): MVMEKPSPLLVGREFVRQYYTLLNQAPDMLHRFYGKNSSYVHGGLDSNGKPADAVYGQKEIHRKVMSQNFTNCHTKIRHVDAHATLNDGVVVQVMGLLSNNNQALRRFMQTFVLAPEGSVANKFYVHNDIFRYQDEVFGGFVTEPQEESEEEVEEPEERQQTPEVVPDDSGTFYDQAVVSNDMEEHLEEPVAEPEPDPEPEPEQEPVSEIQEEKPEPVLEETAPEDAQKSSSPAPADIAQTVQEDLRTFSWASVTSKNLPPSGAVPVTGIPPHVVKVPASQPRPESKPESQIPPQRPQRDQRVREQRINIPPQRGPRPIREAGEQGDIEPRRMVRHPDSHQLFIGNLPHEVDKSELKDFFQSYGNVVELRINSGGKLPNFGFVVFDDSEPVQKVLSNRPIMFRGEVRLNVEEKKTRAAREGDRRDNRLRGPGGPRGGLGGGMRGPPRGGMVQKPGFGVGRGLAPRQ
Method: RNA Bind-n-Seq
Form: RNA
Medium: in vitro
Concentration: 1 µM
Notes: whole 134-nt RNA, ends assumed
Added: 150 mM KCl
Relative to: input library
Direction: higher = stronger binding
Quantity: log2 enrichment
All sequences stand within: GGGAGUUCUACAGUCCGACGAUC … UGGAAUUCUCGGGUGUCAAGG
UAACUUUAGAGGAGGAUCUAAUGGAUAUGGCAGUGGACGUGGAUUUGGGGAUGGCUAUAAUGGGUAUGGAGGAGGACCUGGAGGUGGCAA: -1.1
ACCAUGCAGGUGGGCAUCUUUGGGAAGUGGGGCAAGGGGGGGAUAGGGAGGGGGGUAACACUUUGGGAACAGGUGGUACCAGGUCGUUUC: 2.69
UGGGAGGUGGAUUUUGUUUAUUUUUAUAGCUCAUUUCCAGGGGUGGGAAUUUUUUUUUAAUAUGUGUCAUGAAUAAAGUUGUUUUUGAAA: 3.54
GUCCUGUGCUACACAUCGUAUGUACCGAAUCGGGGAAAAAGGGAAAAAGGGGAAAAAGGAAAGUAUUAUGUUACGCCGUUCGGAUCUGCA: -1.07
UGGCCCUGGUGGCAUGCGGGGAGGAAGAGGCGGCCUCAUGGAUCGUGGUGGUCCCGGUGGAAUGUUCAGAGGUGGCCGUGGUGGAGACAG: 2.19
UCAAGUCCUGUGCUACACAUCGUAUGUACCGAAUCGGUUUGGUUUGGGGUUUGGAAAGUAUUAUGUUACGCCGUUCGGAUCUGCACUUCC: -0.992
GUCCUGUGCUACACAUCGUAUGUACCGAAUCGGGGAAAGGGGUUUUUGGGGUUUGGGGAAAGUAUUAUGUUACGCCGUUCGGAUCUGCAC: 1.62
AAGUCCUGUGCUACACAUCGUAUGUACCGAAUCGGGUUUGGGAAAGGGAAAAAGGGAAAGUAUUAUGUUACGCCGUUCGGAUCUGCACUU: 1.43
CCUCAAGUCCUGUGCUACACAUCGUAUGUACCGAAUCGGCCGGCCGGGCCGGAAAGUAUUAUGUUACGCCGUUCGGAUCUGCACUUCCAG: -1.17
UGGGAGGUGGAUUUUGUUUAUUUUUUUAGCUCAUUUCCAGGGGUGGGAAUUUUUUGUUAAUAUGUGUCAUGAAUAAAGUUGUUUUUGAAA: 2.79
GUCCUGUGCUACACAUCGUAUGUACCGAAUCAAACCCCCCCAAAUUUUUAAAUUUAAAAAAGUAUUAUGUUACGCCGUUCGGAUCUGCAC: -0.278
CCUCAAGUCCUGUGCUACACAUCGUAUGUACCGAAUCGGAGGUUUUUGGAGGAAAGUAUUAUGUUACGCCGUUCGGAUCUGCACUUCCAG: -0.672
CACAGACAACACGCACCCACACAGACACAGAGGGAAGGGGUUGCGAUGGGGACAGGGUGCACAGCAGGGCGGGGUAGGACCCCAGCCCCU: -0.677
CUCAAGUCCUGUGCUACACAUCGUAUGUACCGAAUCGGGCGGGCGGGGCGGGGAAAGUAUUAUGUUACGCCGUUCGGAUCUGCACUUCCA: 2.87

Sample 4
Target: RING finger protein unkempt homolog, zinc fingers 1-6, GST-SBP tag (UNK, Homo sapiens, UniProt Q9C0B0, residues 30-357)
Chain of UniProt Q9C0B0 (30-357, looked up): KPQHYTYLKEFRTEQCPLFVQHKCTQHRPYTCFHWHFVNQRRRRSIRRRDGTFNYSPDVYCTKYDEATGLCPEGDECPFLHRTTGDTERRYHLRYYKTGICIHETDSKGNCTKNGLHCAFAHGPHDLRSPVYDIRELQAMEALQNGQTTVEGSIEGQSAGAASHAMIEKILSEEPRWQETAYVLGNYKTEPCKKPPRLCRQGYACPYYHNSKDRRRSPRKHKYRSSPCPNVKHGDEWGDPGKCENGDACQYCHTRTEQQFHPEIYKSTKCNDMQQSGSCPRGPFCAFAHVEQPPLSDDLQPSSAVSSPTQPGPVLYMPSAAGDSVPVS
Method: RNA Bind-n-Seq
Form: RNA
Medium: in vitro
Concentration: not given
Notes: RNA with constant flanks, human-mouse chimeric sites, ends assumed
Relative to: input RNA pool
Direction: higher = stronger binding
Quantity: bound/input enrichment
All sequences stand within: GGGAGUUCUACAGUCCGACGAUC … CAACAGAGGAUUGAGCAUCA
GUUCGGCUCUGGGAUCAUGCCACAAUGACAGAAGUGAAAUCUCUGAAUUUUAAUAUGUCUGUUAGCAGUAUGGAAUAUAUUCCUGAAGGAGAGAUUUUGGUUAUUACUUAUGGACGAUCU: 1.24 ratio
AGAGAAAUGAGAAAGAAUCUUACACAAGAAGAGAUGCAAAGAAUGUCUACUAGAGUCCUUUUGGCGACUCUUUCCAUUCCUAUUACUCCUGAGCGUACUGAUAUUGCUCGACUUCUGGAU: 0.595 ratio
CCAAUUGUGGAGCAGUACUUGAAGACAAAGAAAAAUUCUAGUCAUUUAAUCAUCAAGUACAUUAGCUGCCGCCUGCUGACACUCAUCAUUAUACUGUUGGCAUGUAUCUACCUGGGCUAU: 0.526 ratio
UAAGUCCUGUGCCAGCACUUCGCUCAUAAAGUUUUAAAUUCUGGACCAAUAGUGUUUGUUUCCUGAUUAUUGUAUCCAAUACUUUAUCUAGUAUGUAACUCACUCUUCUGGAUAAAUAAA: 2.59 ratio
GAGCGUCUUGCCCGCACUGGGAUCAUCGUGACCACUAGUGAGGCUGUCCUCCUACAGCUGGUAGCUGAUAAGGACCACCCGAAGUUCAAGGAAAUUCAGAACCUAAUUAAGGCGAGUGCC: 0.117 ratio
CUUAAUGUUAAUAUUUUUAAAGGAAGCAAGCUAAAAUGUCUGCUUUUGGUACUACAUGCAUUAAUAAAAGGUUAAGUUUUGUUUUCCACUGAAGUACUAUUUAACAUCUCAGAAAAAAAC: 0.171 ratio
UAAGUUAAGCUUUUAAUCUUUGUAAAUUCUUAACAUUUUUAUAUUGCCAUGUUUAUUUUGUUUGGGUAAUUUGGUUCAUUAAGUACAUAGCUAAGGUAAUGAACAUCUUUUUCAGUAAUU: 0.643 ratio
CCCCAAUACCAUUUGCAGGUCUGGAACUGCACUCUCUUUUUUAAAAAAUAUGCAUAUAUUUUAGGGCUGUAGACUUAUUUUCCUGGUUUUGUUUUUCAUUGCUGACUUUUGAGCACAGAA: 1.12 ratio
CUCAUGGCUGCAGAAACAGGAAGUGGAAAAACUGGUGCAUUUAGUAUUCCAGUUAUCCAGAUAGUUUAUGAAACUCUGAAAGACCAACAGGAAGGAAAGAAAGGGAAAACAACUAUUAAA: 0.391 ratio
UUCAAAGAAAAGGGCAGUUCAUAAAUAUCAUAAGUAAAACUGCAUCCGGGAAAUUCUGUUCUUUUGUUUAAUUUUCCCCCAAAUGAAGCCAAAGUGUGUGUUGAAGAACUGAGAAAAAAU: 0.364 ratio
UUCAAAGAAAAGGGCAGCUGUGUCAUUUCAUAAGUAACUCUGGGGGAGGGAAAUUCUAACUAGUUUGUUAAUUUUCCCCCAAAUGAAGCCAAAGUGUGUGUUGAAGAAGGAAGAAUGAAU: 0.626 ratio
